Results from different studies.
Each numbered part is a random draw from the data of one study; scales do not carry over between parts.

Set 1 — technique: competition protein-binding microarray; form: double-stranded DNA, one strand shown; matrix: in vitro; concentration: 2 µM; with: Cbf1 competitor, 0.05 µM; direction: higher = stronger binding; shared flanks, not repeated: … GTCTTGATTCGCTTGACGCTGCTG
Target: Phosphate system positive regulatory protein PHO4, full length, GST-tagged (PHO4, Saccharomyces cerevisiae, UniProt P07270, residues 1-312)
Setting: whole 60-bp probe, lowest competitor level
Construct (chain): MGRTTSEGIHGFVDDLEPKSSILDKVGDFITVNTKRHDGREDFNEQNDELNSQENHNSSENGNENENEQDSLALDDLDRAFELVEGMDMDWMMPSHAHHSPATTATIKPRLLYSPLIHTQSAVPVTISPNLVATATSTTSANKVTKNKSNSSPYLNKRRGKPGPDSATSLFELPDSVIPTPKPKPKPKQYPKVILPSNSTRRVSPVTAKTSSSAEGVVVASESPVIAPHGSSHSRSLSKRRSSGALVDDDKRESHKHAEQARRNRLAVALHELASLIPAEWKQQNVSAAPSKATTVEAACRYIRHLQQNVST
| Oligonucleotide | fluorescence intensity [a.u.] |
| --- | --- |
| AAAGCGGTAATTTGGGCGGTGGGTGCAGATATCTAT | 3950 |
| TAATGCCCGACATTGGACGTGGGACGATAAAGATTG | 5260 |
| GATTGACCAATTCGGCACGTGTATATTTCGTTGACC | 14300 |
| AAACGGTCTTGGCATCAGGTGCAGTTGCCGTTTGTG | 4170 |
| GTCTTGTCTCATTGGCGAGTGGGTGTCCCCACTTCA | 5180 |
| AGAATTTGTCAACAACATGTGGGCTTGGGATAAGCC | 11100 |
| ACGCTGAATACTTGGCAGGTATGGCTTTCAACAATG | 4350 |
| GGTAATATTTTTACCACCGTGCGGACTTTCAATGGC | 8400 |
| AAAGCGGTAATTTAGCACGTGTTTTCACATATCTAT | 19000 |
| AAAGCGGTAATTTGCTAGGTGGGTGCAGATATCTAT | 4170 |
| TACATTTCTTCCCCTCTCGTGATGGCTAGATAATAG | 6860 |
| ACCAAATGTGGAAATGGCATGACAACCCCCCAGACA | 5610 |
| TCTCTTCTATCTTTAAAAGCAGGATGTGTTTCTTCC | 4880 |
| CGTCCTAGTGATTCACACGTGTTTTCCATGAGGAAG | 17700 |
| CGCCAATCCAGCATGAGCATGACGCCGGTTCGAGAA | 6330 |
| TGCGCAACAACTTTTCACGTGTTTTTATGTCTAGAA | 14800 |
| CCTTTGTCGGTGGTACTCGTGGTGACGGTCCAAGAA | 8660 |
| ATTTTAACTTCATCTACCGTGATGGCTATTACCACC | 4810 |
| ATATCTCGCACTTCTCTCGTGATGGTCATTGAGTGC | 4510 |
| ATAGAAGTTTTTTTATCCTCTCTTTGTTTCCATTAT | 3020 |
| AATGAGTTCACTCACCACGTTAGAGTCTCCCAATAT | 6140 |
| TGAACTTGGACAAACCTCGTGGTGAAATTTAAAAAT | 10400 |
| AAAGCGGTAATTTGGGGCGTGGGTGCAGATATCTAT | 9320 |

Set 2 — technique: RNA Bind-n-Seq; form: RNA; matrix: in vitro; concentration: 365 nM; relative to: no-protein control; direction: higher = stronger binding
Target: RNA binding protein fox-1 homolog 2, RRM domain, GST-SBP tag (RBFOX2, Homo sapiens, UniProt O43251-10, residues 100-194)
Setting: natural RNA segment, single round, ends assumed
Shared flanks, not repeated: GGGAGUUCUACAGUCCGACGAUC … UGGAAUUCUCGGGUGCCAA
Target sequence (chain): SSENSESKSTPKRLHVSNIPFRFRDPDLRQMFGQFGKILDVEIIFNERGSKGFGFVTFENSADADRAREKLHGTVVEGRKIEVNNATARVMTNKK
| Oligonucleotide | RBNS enrichment (R) |
| --- | --- |
| GCUGGGACCUGCCUGGGCCUGGACCUGGGCCCGAGCAGCUGGGGACUUCACUGUCCAUGGGUCCUAGACAGGCCUGCAGGCAGGCAGGGUGCACACGCCUUCCUUCCCUC | 0.685 |
| GCUGAAAAUCAAAGUAAAAAAUUAAAGCCCAUAAGGCCAGAAACUCCUUUUGCUGUCUUUCUCUAAAUAUGAUUACUUUAAAAUAAAAAAGUAACAAGGUGUCUUUUCCA | 0.758 |
| AAGGGUUUCAGAACAGAGCCACGGGACUGGUAGGAAGAGGAGAUCCACAAAUGCUGUAUACAGGCUGUACCGCUGCUUCAAACCCCACUUGUCCAGUGCUUCACAGUGUU | 0.516 |
| CUCUGCCAAGUGUCCCUGUGCUCCAGCACCUUCCUUGAAGGACUGACGCCCACCCCACGCUCUUUGCGAGGUUGUCCAGGCUGUGUUUGUCGCAUGCUCUUCUUCUGUAU | 9.39 |
| GGUUAAAUAAAAACACUUGGGGGUAAGAGGGCUUUCUUCAGAGACUCCCAGGUGGGAGUGCCUCUAGUCUGGUGGUCCUCAAAGACUCAUCCACAGCAGCAUCUGCCCAU | 1.87 |
| GUAUUCUUACUGUUUUUUUAAAAUAACUUUUUGCCUUAAUAGCUCAUUGUCACUAAUAACUUCUGUGUUCUCCCAGGCAGUGUUAUAACAGAAGGGCAAUGAAAACAUUG | 0.447 |
| UUACCAAAGUAUAAAUUUAUUUCUUAAAAUGUGAGUAAUAGGAAUUUUAAAGAUUUAUAUAAUGCUUUUGAACACUCUGAGAAAGGGUUGUUUUUUUUCAUUGGGUUAAU | 0.516 |
| AGAUACUCCCCUGAGUCCCCGAUCUAGGGCCAGCUGCAGAGGGCUCUCUCUAGGCAGAGCGUUCCUGGCCAGAGCUCUACCUCUUUGCCUCCUGCUGACCCCUGACAGCG | 0.289 |
| GGGCCCACCAUCAGCCUGGACCUGGACGUGGAUGAUGUGGAGAUGGAGAACUAUGAGGCCCUCCUGAACCUGGCCGAGCGGCUGGGAGAUGCCAAGCCCCGGGGUCUCAC | 0.343 |
| UAGCUAAUAAUGGAUUUAAGUGUUUGGAUAAUUGUAGAUGCAUUUACUUUGAUAAAGCGUGUGCUUAAAGUGGUAUCACCAGUGAUUUCUAACAUGAUUUUAAAAAAAUA | 0.846 |
| AUGUACAUAGAAUUGCCAGUGUAUAAAUUAAGAUGUUUUAUUGUUGUUGUCCUUCUUAAUCUCAUUAUACUUCAUCAUGUUGAGUUUCCCAACAUGUGAUGACUAUUCUU | 1.07 |
| GGAGCCCAGCUAUUUACAAAGUACACACGAGGGAGCAGGCUGGUCAUUGACUUCGGGCUGGACCGUUGCCCUCUGAGCAGAGAACAGACCCAUUUCUGGGAGCUGCCCGA | 0.498 |

Set 3 — technique: protein-binding microarray; form: double-stranded DNA, one strand shown; matrix: in vitro; concentration: 940 nM top; setting: 60-bp whole probe; with: salmon DNA 0.4 mg/ml; relative to: random background probes; direction: higher = stronger binding; shared flanks, not repeated: GCCTAGCAC … GTCTTGATTCGCTTGACGCTGCTG
Target: Interferon regulatory factor 5, full length, phosphomimetic (IRF5, Homo sapiens, UniProt Q13568-2, residues 1-514, S451D/S453D/S456D/S462D)
| Oligonucleotide | fitted relative affinity [z-score] |
| --- | --- |
| GACGACCTGAGTCTCGAGACGTGCTAG | 0.741 |
| TTAGGACTGAGACTGGATTAGTGCTAG | -0.334 |
| TTCGGTATCGGTCTCGGTTAGTGCTAG | 10.4 |
| GACGTTATCGACTATCGGGACGTGCTA | 0.0993 |
| TTAGAAATGGGGTTTCGATTAGTGCTA | 5.63 |
| GACGGATTGGACACTGGGGACGTGCTA | -0.358 |
| TTAGAGCTGAGTTTCGATTAGTGCTAG | 7.27 |
| GACGATTCCGGGTTTCGAGACGTGCTA | 2.14 |
| TTAGATCTCAGTATTGATTAGTGCTAG | 0.411 |
| TTAGGTTCCGATTTCGGTTAGTGCTAG | 2.44 |
| TTAGGACTGAGTATCGGTTAGTGCTAG | 4.01 |
| TTAGATTTCAGTATCGAGTAGTGCTAG | 2.8 |
| GGCGATTTCAGTTTCGAGACGTGCTAG | 5.42 |
| GAGGGACTGCTTCTCCTGACGTGCTAG | -0.321 |
| TGTGCTTTCCTGATGGTTCTGTGCTAG | -0.111 |
| GAAGATTTCAGTTCCGAGACGTGCTAG | 0.588 |
| GACGGTATCGGACGGGGGACGTGCTAG | 4.19 |
| TTAGGTATCCTTCTCCTTTGGTGCTAG | 0.627 |

Set 4 — technique: protein binding microarray; form: double-stranded DNA, one strand shown; matrix: in vitro; concentration: not given; relative to: not given; direction: higher = stronger binding
Target: Histone acetyltransferase KAT6A, winged helix 2, GST fusion (KAT6A, Homo sapiens, UniProt Q92794, residues 85-181)
Setting: 8-mer, flanks averaged, mean of 2 arrays, mostly near background
Construct (chain): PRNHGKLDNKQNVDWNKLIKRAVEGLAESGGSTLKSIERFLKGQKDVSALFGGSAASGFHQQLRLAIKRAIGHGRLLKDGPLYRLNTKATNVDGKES
| Oligonucleotide | E-score |
| --- | --- |
| CTATAAAG | -0.194 |
| ATGCTAAA | 0.192 |
| ATATACAT | -0.0822 |
| CGTCTTAC | -0.0651 |
| GCGATTAA | 0.161 |
| AATAAAGG | -0.0913 |
| CTGTTCCA | -0.119 |
| ATGACTAA | -0.238 |
| TACGTCAA | -0.249 |
| GTAGCGCA | -0.0378 |
| CTATGATC | 0.0698 |
| AGAGTCAT | -0.277 |
| CCTGCTAC | 0.152 |
| CCAGGACG | 0.157 |
| GATAGGTA | -0.0825 |
| CACATCCC | -0.171 |
| GCTCAGCA | 0.162 |
| CAGAATCG | 0.0919 |
| GGCTTCCA | -0.00918 |
| GCAGTCCA | -0.0574 |
| GCATGTTA | -0.00922 |

Set 5 — technique: universal PBM; form: double-stranded DNA, one strand shown; matrix: in vitro; concentration: not given; direction: higher = stronger binding
Target: Sal-like protein 4, full length isoform B (SALL4, Homo sapiens, UniProt Q9UJQ4-2, residues 1-616)
Setting: 8-mer, flanks averaged, mean of replicates
| Oligonucleotide | E-score |
| --- | --- |
| CCGTCACA | -0.245 |
| CCGAAGGC | -0.183 |
| ACTATCGC | 0.0588 |
| ACCGTCTG | -0.265 |
| AACCAACA | 0.118 |
| GCGGCCAA | -0.249 |
| CCTCACCA | -0.17 |
| AAGATCGT | 0.039 |
| CAAAGCGC | -0.104 |
| CTCGCGTC | -0.223 |
| AGCAAATG | 0.00829 |
| ACTGATTC | 0.0194 |
| AATCTAAG | 0.131 |
| CAGTCTAG | -0.167 |
| ACGCGGCG | -0.299 |
| AGTCGCGA | -0.118 |
| GGATAGCC | -0.22 |
| ACAATTCA | 0.204 |
| GGGACTAC | -0.117 |
| CCATGTCG | -0.212 |
| CATTGCTA | 0.176 |
| CGCATCCG | -0.205 |

A few entries again (set 2):
| Oligonucleotide | RBNS enrichment (R) |
| --- | --- |
| AUGUACAUAGAAUUGCCAGUGUAUAAAUUAAGAUGUUUUAUUGUUGUUGUCCUUCUUAAUCUCAUUAUACUUCAUCAUGUUGAGUUUCCCAACAUGUGAUGACUAUUCUU | 1.07 |
| AGAUACUCCCCUGAGUCCCCGAUCUAGGGCCAGCUGCAGAGGGCUCUCUCUAGGCAGAGCGUUCCUGGCCAGAGCUCUACCUCUUUGCCUCCUGCUGACCCCUGACAGCG | 0.289 |
| GCUGGGACCUGCCUGGGCCUGGACCUGGGCCCGAGCAGCUGGGGACUUCACUGUCCAUGGGUCCUAGACAGGCCUGCAGGCAGGCAGGGUGCACACGCCUUCCUUCCCUC | 0.685 |
| GGAGCCCAGCUAUUUACAAAGUACACACGAGGGAGCAGGCUGGUCAUUGACUUCGGGCUGGACCGUUGCCCUCUGAGCAGAGAACAGACCCAUUUCUGGGAGCUGCCCGA | 0.498 |
| UUACCAAAGUAUAAAUUUAUUUCUUAAAAUGUGAGUAAUAGGAAUUUUAAAGAUUUAUAUAAUGCUUUUGAACACUCUGAGAAAGGGUUGUUUUUUUUCAUUGGGUUAAU | 0.516 |
| GUAUUCUUACUGUUUUUUUAAAAUAACUUUUUGCCUUAAUAGCUCAUUGUCACUAAUAACUUCUGUGUUCUCCCAGGCAGUGUUAUAACAGAAGGGCAAUGAAAACAUUG | 0.447 |
| GGUUAAAUAAAAACACUUGGGGGUAAGAGGGCUUUCUUCAGAGACUCCCAGGUGGGAGUGCCUCUAGUCUGGUGGUCCUCAAAGACUCAUCCACAGCAGCAUCUGCCCAU | 1.87 |
| GCUGAAAAUCAAAGUAAAAAAUUAAAGCCCAUAAGGCCAGAAACUCCUUUUGCUGUCUUUCUCUAAAUAUGAUUACUUUAAAAUAAAAAAGUAACAAGGUGUCUUUUCCA | 0.758 |
| AAGGGUUUCAGAACAGAGCCACGGGACUGGUAGGAAGAGGAGAUCCACAAAUGCUGUAUACAGGCUGUACCGCUGCUUCAAACCCCACUUGUCCAGUGCUUCACAGUGUU | 0.516 |
